# Assay results collected from several papers.
# A part holds a random share of what one study measured. Several values in a cell are separate wells, animals, samples, runs or records.
# UniProt Q15831, sequence (whole entry, looked up): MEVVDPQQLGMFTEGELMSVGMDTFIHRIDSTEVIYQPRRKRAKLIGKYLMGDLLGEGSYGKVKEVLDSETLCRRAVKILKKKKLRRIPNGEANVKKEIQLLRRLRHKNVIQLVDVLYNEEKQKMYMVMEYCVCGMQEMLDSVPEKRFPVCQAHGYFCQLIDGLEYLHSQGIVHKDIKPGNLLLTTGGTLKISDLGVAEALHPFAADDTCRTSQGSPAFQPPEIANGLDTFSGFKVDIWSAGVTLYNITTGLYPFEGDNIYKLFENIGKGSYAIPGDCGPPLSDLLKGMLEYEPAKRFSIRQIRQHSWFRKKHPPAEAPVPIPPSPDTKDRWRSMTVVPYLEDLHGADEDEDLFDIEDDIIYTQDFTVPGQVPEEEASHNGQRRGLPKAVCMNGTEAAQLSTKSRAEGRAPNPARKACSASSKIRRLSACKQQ
# UniProt P19784, sequence (whole entry, looked up): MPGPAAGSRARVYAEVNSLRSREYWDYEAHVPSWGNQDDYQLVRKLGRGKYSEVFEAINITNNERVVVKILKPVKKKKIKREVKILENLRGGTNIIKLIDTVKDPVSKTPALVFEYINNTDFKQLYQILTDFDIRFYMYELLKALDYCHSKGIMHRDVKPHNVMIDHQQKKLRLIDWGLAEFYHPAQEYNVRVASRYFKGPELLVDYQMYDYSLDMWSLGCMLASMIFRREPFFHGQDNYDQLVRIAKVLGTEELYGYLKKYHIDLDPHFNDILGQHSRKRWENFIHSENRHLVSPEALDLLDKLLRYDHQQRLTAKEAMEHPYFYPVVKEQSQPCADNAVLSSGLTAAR
# UniProt Q9HBH9, sequence (whole entry, looked up): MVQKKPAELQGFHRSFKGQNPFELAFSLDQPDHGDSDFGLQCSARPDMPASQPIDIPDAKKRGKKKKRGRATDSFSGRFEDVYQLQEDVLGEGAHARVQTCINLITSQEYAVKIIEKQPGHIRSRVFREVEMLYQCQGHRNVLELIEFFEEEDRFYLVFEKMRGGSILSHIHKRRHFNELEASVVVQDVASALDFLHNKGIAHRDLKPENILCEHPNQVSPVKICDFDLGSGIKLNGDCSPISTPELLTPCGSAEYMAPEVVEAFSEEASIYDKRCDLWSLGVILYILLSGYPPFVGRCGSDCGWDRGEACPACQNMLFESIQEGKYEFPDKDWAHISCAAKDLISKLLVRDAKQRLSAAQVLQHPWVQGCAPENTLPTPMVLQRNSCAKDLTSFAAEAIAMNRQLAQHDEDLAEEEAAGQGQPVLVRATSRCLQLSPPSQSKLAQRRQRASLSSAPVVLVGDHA
# UniProt Q13873, sequence (whole entry, looked up): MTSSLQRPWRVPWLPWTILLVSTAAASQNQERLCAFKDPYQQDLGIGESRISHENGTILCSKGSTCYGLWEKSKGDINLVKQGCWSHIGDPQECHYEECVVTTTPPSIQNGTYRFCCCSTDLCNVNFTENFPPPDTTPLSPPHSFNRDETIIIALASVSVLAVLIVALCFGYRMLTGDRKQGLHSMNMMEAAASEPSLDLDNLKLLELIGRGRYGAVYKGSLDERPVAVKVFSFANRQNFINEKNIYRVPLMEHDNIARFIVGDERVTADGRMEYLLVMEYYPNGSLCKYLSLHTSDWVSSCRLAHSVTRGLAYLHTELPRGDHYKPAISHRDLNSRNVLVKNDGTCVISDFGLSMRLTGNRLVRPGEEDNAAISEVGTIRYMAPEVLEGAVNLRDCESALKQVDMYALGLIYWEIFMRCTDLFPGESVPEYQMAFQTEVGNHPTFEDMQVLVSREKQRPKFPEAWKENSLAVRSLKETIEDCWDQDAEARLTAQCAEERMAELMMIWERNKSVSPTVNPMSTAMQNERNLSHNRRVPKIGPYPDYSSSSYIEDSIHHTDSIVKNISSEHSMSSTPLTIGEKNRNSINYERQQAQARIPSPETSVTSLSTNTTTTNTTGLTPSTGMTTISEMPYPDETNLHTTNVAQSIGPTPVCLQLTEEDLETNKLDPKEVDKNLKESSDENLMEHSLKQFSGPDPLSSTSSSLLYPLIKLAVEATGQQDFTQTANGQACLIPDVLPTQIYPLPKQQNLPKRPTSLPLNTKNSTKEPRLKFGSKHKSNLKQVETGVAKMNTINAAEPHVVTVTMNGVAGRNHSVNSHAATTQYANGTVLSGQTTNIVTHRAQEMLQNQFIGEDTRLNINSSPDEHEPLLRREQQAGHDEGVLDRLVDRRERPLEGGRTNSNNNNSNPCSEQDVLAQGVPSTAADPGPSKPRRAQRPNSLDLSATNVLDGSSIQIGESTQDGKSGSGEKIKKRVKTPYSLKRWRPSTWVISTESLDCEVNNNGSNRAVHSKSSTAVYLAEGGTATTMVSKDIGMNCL

# Study 1 — organism: Sarcocystis neurona; effect on: parasite growth; concentration: 10 µM; time: 96 h; notes: second screen; baseline: untreated
Compound,log2 fold change
NCC(=O)CCC(=O)O,0.17
CC(=O)[C@H]1CC[C@H]2[C@@H]3C[C@H](C)C4=CC(=O)CC[C@]4(C)[C@H]3[C@@H](O)C[C@]12C,0.0378
NC(=O)c1ncn([C@@H]2O[C@H](CO)[C@@H](O)[C@H]2O)n1,0.53
CN1[C@@H]2CC[C@H]1C[C@@H](OC(=O)c1c[nH]c3ccccc13)C2,0.35

# Study 2 — effect on: cell-free assay; technique: competition with immobilised ligand; concentration: 1 µM
# SMILES: CN(C)c1ncnc(-c2ccc3nc(Nc4cc(CN5CCN(C(=O)CC(F)(F)F)CC5)ccn4)[nH]c3c2)c1Cl
target,remaining binding [%]
"FLT3 (Homo sapiens, UniProt P36888, D835V/ITD)",15
"BMPR2 (Homo sapiens, UniProt Q13873)",61
"STK11 (Homo sapiens, UniProt Q15831)",99
"CSNK2A2 (Homo sapiens, UniProt P19784)",78
"MKNK2 (Homo sapiens, UniProt Q9HBH9)",37

# Study 3 — effect on: enzyme activity; action: inhibitor; concentration: 0.5 µM; baseline: control
# Target: Dual specificity mitogen-activated protein kinase kinase 1 (MAP2K1, Homo sapiens, UniProt Q02750)
# UniProt Q02750, sequence (whole entry, looked up): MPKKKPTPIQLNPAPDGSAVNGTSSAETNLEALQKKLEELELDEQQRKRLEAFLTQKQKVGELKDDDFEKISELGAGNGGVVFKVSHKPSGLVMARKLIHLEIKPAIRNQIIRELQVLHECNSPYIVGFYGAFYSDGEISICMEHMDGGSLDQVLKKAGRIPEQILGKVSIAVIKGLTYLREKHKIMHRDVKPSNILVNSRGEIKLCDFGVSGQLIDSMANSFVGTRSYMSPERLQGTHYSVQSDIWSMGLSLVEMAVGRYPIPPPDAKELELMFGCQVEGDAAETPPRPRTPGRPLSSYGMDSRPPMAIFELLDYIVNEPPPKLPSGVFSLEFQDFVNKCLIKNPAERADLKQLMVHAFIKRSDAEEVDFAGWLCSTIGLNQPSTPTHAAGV
SMILES,remaining activity [%]
O=c1c2ccccc2[nH]c(=S)n1CCN1CCC(=C(c2ccc(F)cc2)c2ccc(F)cc2)CC1,97.5
Cc1ccc(Nc2nccc(N(C)c3ccc4c(C)n(C)nc4c3)n2)cc1S(N)(=O)=O,106
Cn1c2ccccc2c2c3c(c4c5ccccc5n(CCC#N)c4c21)CNC3=O,90.2
Nc1[nH]nc2nc3ccccc3nc12,98.8
COc1cc2nccc(Oc3ccc(NC(=S)NC(=O)c4ccccc4C)cc3)c2cc1OC,88.3
Oc1ccc(-c2nc(-c3ccncc3)c(-c3ccc(F)cc3)[nH]2)cc1,93
COc1ccc(C(=O)Nc2sc3c(c2C(N)=O)CCCC3)cc1OC,99.1
COc1ccc(OC)c2c(=S)c3ccccc3[nH]c12,91.7
O=S(=O)(c1cccc2cnccc12)N1CCCNCC1,83
O=C1NC(=O)C(c2cn(CCCn3ccnc3)c3ccccc23)=C1Nc1ccccc1,90.6
CO[C@H]1C[C@@H]2CC[C@@H](C)[C@@](O)(O2)C(=O)C(=O)N2CCCC[C@H]2C(=O)O[C@H]([C@H](C)C[C@@H]2CC[C@@H](O)[C@H](OC)C2)CC(=O)[C@H](C)/C=C(\C)[C@@H](O)[C@@H](OC)C(=O)[C@H](C)C[C@H](C)/C=C/C=C/C=C/1C,92.1
Nc1ccc2ncnc(NCCc3ccc(Oc4ccccc4)cc3)c2c1,107
Cc1cccc(-c2[nH]c(C(C)(C)C)nc2-c2ccc3c(c2)OCO3)n1,93.3
OCC(O)CCON=C1C(c2c(O)[nH]c3ccccc23)=Nc2ccccc21 (stereo not shown),99.7

# Study 4 — cell line: HuT78; concentration: 2 µM; time: 48 h; baseline: untreated
Structure (SMILES),viability
C=CC(=O)Nc1ccc2ncnc(Nc3cccc(Br)c3)c2c1,130%
COc1cc2ncnc(Oc3ccc(CC(=O)Nc4cnn(C(C)C)c4)cc3)c2cc1OC,123%
Cc1c(NC(=O)OC[C@@H]2COCCN2)cn2ncnc(Nc3ccc4c(cnn4Cc4cccc(F)c4)c3)c12,155%
COc1cc2ncnc(Nc3ccc(Cl)cc3F)c2cc1OC,125%

# Single results of other studies
Structure (SMILES),cell line,technique,concentration,together with,baseline,endpoint,value
c1ccc2c(-c3nn4c(-c5ccncc5)nnc4s3)c[nH]c2c1,healthy dermal fibroblasts,4-MUP hydrolysis,0.5 µM,without ISRIB,DMSO without ISRIB,lysosomal acid lipase activity,164% and 167% and 172% and 170%
